# Measurements pooled from the literature.
# Lines come from different studies, so protocols differ. Several values in a cell are separate wells, animals, samples, runs or records. ± marks the error that the study gave.
# HDAC6 ZnF-UBD domain: Protein deacetylase HDAC6, ZnF-UBD domain (HDAC6, Homo sapiens, UniProt Q9UBN7)
# UniProt Q9UBN7, sequence (whole entry, looked up): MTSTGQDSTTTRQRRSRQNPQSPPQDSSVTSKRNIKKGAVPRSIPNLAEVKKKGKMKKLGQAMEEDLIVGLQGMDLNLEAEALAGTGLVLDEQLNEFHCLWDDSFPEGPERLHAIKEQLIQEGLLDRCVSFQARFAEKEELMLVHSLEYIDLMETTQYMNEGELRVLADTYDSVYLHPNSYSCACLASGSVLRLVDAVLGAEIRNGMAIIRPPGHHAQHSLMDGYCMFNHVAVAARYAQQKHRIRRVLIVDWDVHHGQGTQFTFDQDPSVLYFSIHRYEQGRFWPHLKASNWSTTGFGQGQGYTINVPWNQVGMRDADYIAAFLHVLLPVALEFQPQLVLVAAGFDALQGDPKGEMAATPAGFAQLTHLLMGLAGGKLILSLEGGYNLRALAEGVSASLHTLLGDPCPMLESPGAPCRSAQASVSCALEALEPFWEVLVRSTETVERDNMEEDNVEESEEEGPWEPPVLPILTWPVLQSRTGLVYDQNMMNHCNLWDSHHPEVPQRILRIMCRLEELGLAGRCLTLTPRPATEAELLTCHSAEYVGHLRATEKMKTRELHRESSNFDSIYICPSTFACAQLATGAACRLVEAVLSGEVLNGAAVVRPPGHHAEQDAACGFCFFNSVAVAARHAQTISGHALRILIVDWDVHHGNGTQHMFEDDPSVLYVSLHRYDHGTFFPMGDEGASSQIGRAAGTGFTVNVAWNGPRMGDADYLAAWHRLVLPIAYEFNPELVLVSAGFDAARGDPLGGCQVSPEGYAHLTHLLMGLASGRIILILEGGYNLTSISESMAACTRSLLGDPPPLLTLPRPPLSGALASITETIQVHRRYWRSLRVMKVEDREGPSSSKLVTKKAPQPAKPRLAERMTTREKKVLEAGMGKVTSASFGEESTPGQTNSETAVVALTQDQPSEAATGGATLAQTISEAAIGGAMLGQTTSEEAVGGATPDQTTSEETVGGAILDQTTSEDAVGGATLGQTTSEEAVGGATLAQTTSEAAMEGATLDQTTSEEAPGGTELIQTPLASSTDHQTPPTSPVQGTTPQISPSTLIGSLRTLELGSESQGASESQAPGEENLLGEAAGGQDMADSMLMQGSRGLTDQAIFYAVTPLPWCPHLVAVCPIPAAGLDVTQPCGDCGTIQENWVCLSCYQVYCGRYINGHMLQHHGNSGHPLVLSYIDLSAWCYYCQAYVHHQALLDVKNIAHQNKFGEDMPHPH
# UniProt Q15349, sequence (whole entry, looked up): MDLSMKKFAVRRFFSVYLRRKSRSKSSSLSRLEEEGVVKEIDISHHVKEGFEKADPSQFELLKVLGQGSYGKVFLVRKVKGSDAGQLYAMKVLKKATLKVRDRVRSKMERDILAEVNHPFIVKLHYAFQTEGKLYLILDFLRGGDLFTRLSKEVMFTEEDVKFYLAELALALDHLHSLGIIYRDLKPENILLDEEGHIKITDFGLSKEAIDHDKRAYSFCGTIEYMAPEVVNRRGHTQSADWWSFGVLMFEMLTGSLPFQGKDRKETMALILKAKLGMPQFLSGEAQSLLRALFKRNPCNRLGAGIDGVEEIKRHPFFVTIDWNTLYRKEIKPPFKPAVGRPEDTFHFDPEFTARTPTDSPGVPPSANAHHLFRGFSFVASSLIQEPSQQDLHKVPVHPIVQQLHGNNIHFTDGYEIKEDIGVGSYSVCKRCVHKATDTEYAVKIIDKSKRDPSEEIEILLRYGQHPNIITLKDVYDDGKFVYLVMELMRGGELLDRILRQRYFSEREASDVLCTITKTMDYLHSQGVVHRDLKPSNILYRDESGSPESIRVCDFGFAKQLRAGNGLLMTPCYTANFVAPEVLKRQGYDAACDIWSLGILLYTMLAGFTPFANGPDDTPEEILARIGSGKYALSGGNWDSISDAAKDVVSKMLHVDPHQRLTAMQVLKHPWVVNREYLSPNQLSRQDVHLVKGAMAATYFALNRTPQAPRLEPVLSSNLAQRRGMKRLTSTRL
Compound,tested on,assay,system,conditions,scale,measurement,result
NC(=O)c1cnc2[nH]ccc2c1N[C@@H]1[C@@H]2CC3C[C@H]1C[C@@](O)(C3)C2,,flow cytometry,"Japanese healthy men, blood","oral, 10 mg twice daily, 72 h after day 7 dose",baseline: baseline,total memory T-cell change,1.7%
O=C(O)CCc1cn2cccnc2n1,HDAC6 ZnF-UBD domain,,,,,Kd,> 1000 µM
CCn1cc(-c2cc(Cn3ccoc3=N)cc3c2CCN([C@@H](C)c2cc(OC)ccn2)C3=O)c(C(F)(F)F)n1,Lu-99,"cell growth, inhibitor",,120 h,,EC50,0.185 µM
CC[S+]([O-])c1nc(-c2ccccc2)cc(C(F)(F)F)n1 (stereo not drawn),importin alpha/beta-1,"cMyc nuclear import, high content imaging",HeLa Kyoto reporter,"5 µM, 2 h",,cells with nuclear reporter,44.6% and 47% and 46.4% and 30.5%
O=C(/C=C/C=C/C=C/C1CCCCC1)NC1=C[C@@](O)(/C=C/C=C/C=C/C(=O)NC2=C(O)CCC2=O)[C@@H]2O[C@@H]2C1=O,KP-4,"cell growth, CellTiter-Glo",,78 h,,GI50,25.5 µM
CC(C)NCC(O)c1ccc(O)c(O)c1 (stereo not drawn),,,"ventricular cardiomyocytes, C57BL/6 mouse","dose not given, 0.192 s",,sarcomere length,1.49 µm
c1ccc(-c2n[nH]cc2-c2ccnc3ccccc23)nc1,,"kinase binding, competitor, MIB/MS competition, item: PKH2",Candida albicans cell lysate,100 nM,baseline: DMSO,log2 fold change,1.19
Oc1ccccc1-c1n[nH]cc1-c1ccnc2ccccc12,CDC7 (Candida albicans),"kinase binding, MIB/MS competition",Candida albicans lysate,1 µM,baseline: DMSO,log2 fold change,-0.01
O=C1c2cccc3c2[C@H](CCC3)CN1[C@@H]1CN2CCC1CC2,H+/organic cation antiporter,cell uptake,hCMEC/D3,,,Vmax,1910 pmol/min/mg protein
CCn1cc(-c2cc(Cn3ccnc3)cc3c2CCN([C@H](c2cc(OC)ccn2)C2CC2)C3=O)c(C(F)(F)F)n1,JHOM1,cell growth,,120 h,,EC50,0.0238 µM
CC(C)C[C@H](NC(=O)C[C@H](O)[C@H](CC(C)C)NC(=O)[C@H](Cc1c[nH]cn1)NC(=O)CNC(=O)[C@@H](NC(=O)[C@H](C)NC(=O)[C@H](Cc1c[nH]c2ccccc12)NC(=O)[C@H](CCC(N)=O)NC(=O)[C@@H](Cc1ccccc1)NC(=O)COCCOCCNC(=O)CCC(C(=O)O)N1CCN(CC(=O)O)CCN(CC(=O)O)CCN(CC(=O)O)CC1)C(C)C)C(N)=O (stereo partly drawn) [lutetium-177 labelled],,,"female BALB/c nu/nu mice, kidneys","intravenous, 100 pmol, 2 h, added: PA 300 µg",,tissue uptake,3.5 ± 1 %ID/g
CCOc1ccccc1OCCN[C@H](C)Cc1ccc(OC)c(S(N)(=O)=O)c1,H+/organic cation antiporter,cell uptake,hCMEC/D3,,,Vmax,795 pmol/min/mg protein
Cn1cc(-c2ccc(-c3cncc(Cl)c3N3CCC4(CCNC4=O)CC3)cc2)cn1,COLO 205,"gene expression, microarray, item: CCR7 mRNA",,"concentration not given, 2 h",baseline: untreated cells,log2 fold change,-2
O=C(O)CNC(=O)Cc1ccccc1,,,"ventricular cardiomyocytes, C57BL/6 mouse","dose not given, 0.156 s",,sarcomere length,1.65 µm
CC[C@@H]1[C@H](F)C(=O)N[C@@H]1COc1nccc2cc(C(N)=O)c(OC)cc12,"RPS6KA2 (Homo sapiens, UniProt Q15349)","ATP probe binding, KiNativ profiling, item: RSK3 Lys2 probe site",THP-1 cell lysate,,,IC50,> 5 µM
O=C(O)CNC(=O)c1ccc(C(=O)N2CCC(c3ccc(Cl)cc3)CC2)cn1,HDAC6 ZnF-UBD domain,,,,,Kd,415 µM
c1coc(-c2n[nH]cc2-c2ccnc3ccccc23)c1,PTK2 (Candida albicans),"kinase binding, MIB/MS competition",Candida albicans lysate,1 µM,baseline: DMSO,log2 fold change,0.19
OC(CCN1CCCCC1)(c1ccccc1)C1CC2C=CC1C2 (stereo not drawn),,resting-state EEG,healthy elderly humans,"oral, 2 mg, eyes closed, LS mean",,"power, alpha, EEG O1-Pz",21.3 µV²

# Some of these lines once more:
Compound,tested on,assay,system,conditions,scale,measurement,result
CC[S+]([O-])c1nc(-c2ccccc2)cc(C(F)(F)F)n1 (stereo not drawn),importin alpha/beta-1,"cMyc nuclear import, high content imaging",HeLa Kyoto reporter,"5 µM, 2 h",,cells with nuclear reporter,44.6% and 47% and 46.4% and 30.5%
O=C(/C=C/C=C/C=C/C1CCCCC1)NC1=C[C@@](O)(/C=C/C=C/C=C/C(=O)NC2=C(O)CCC2=O)[C@@H]2O[C@@H]2C1=O,KP-4,"cell growth, CellTiter-Glo",,78 h,,GI50,25.5 µM
CC(C)NCC(O)c1ccc(O)c(O)c1 (stereo not drawn),,,"ventricular cardiomyocytes, C57BL/6 mouse","dose not given, 0.192 s",,sarcomere length,1.49 µm
